Assay results of several laboratories.
A part holds a random share of what one study measured. Changes are numbered by the printed parent chain.

Set 1
Target: JUNB, bZIP domain (human)
Technique: DHFR protein complementation
Matrix: yeast
Setting: single substitutions, most at no-binding floor
Relative to: wild-type JUN-FOS pair
Direction: higher = stronger binding
Starting sequence: JUN, bZIP domain (human); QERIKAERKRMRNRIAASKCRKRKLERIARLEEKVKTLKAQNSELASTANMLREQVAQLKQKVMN; partner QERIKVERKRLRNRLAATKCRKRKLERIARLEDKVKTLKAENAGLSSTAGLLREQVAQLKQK
`N42V` has a binding fitness of -1.19 natural log.
For `A49C`, the binding fitness was -0.161 natural log.
`V56P` gave a binding fitness of -1.5 natural log.
`S47R` has a binding fitness of -0.839 natural log.
With `E32R` the binding fitness was -1.22 natural log.
For `R53W`, the binding fitness was -1.46 natural log.
With `L45V` the binding fitness was -1.53 natural log.
For `E32V`, the binding fitness was -1.28 natural log.
The binding fitness of `T37R` is reported as -1.07 natural log.
`A46H` has a binding fitness of -1.13 natural log.
For `E32C`, the binding fitness was -1.29 natural log.
For `S43C`, the binding fitness was -1.19 natural log.
With `A49M` the binding fitness was -1.25 natural log.
For `L59C`, the binding fitness was -1.39 natural log.
The binding fitness of `L45K` is reported as -1.42 natural log.
`L31H` gave a binding fitness of -1.54 natural log.
`E54W` gave a binding fitness of -1.46 natural log.
For `M51E`, the binding fitness was -1.08 natural log.
With `M51V` the binding fitness was -1.19 natural log.
For `R30I`, the binding fitness was -1.13 natural log.
With `A57W` the binding fitness was -1.41 natural log.
For `K36C`, the binding fitness was -1.29 natural log.
With `V35A` the binding fitness was -1.5 natural log.
For `T48L`, the binding fitness was -1.05 natural log.
`K36T` gave a binding fitness of -1.34 natural log.

Set 2
Target: RNA binding protein fox-1 homolog 2, RRM domain, GST-SBP tag (RBFOX2, Homo sapiens, UniProt O43251-10, residues 100-194)
Technique: RNA Bind-n-Seq
Molecule type: RNA
Matrix: in vitro
Concentration: 365 nM
Setting: natural RNA segment, single round, ends assumed
Relative to: no-protein control
Direction: higher = stronger binding
All sequences stand within: GGGAGUUCUACAGUCCGACGAUC … UGGAAUUCUCGGGUGCCAA
Construct (chain): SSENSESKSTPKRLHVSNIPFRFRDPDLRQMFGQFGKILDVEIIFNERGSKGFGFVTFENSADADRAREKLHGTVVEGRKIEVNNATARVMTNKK
For `AAAAGAAAUCUUUACUUUCCUUGUUUUAUCAUUAUAAAAAUAAAGUAUUUUGCUAGUAUGGAAACAACCUUUGUAUUUGACGUCACCUGGGGUCUGCUGGCAGAAGUUUG`, “RBNS enrichment (R)” read 0.555.
For `UGGGCACCUGGCCUCCAGGAGUCGCUGUGUUGGGAGAGCCGGCCACGCCCUUGGCUUUAGAGCUGUGUUGAAAUCCAUUUUGGUGGUUGGUUUUUAACCCAAACUCAGUG`, “RBNS enrichment (R)” read 0.567.
For `GGGUGCCAGUUUUUUAAUCACUAUAGCCCUUGGGAAGGCUUGGGCUAUUUACUGGGCGGUAAAAGGGGUUUACCUCUCACCUUUGGUCAUUCCUAAGUUCCUAUCUCCUU`, “RBNS enrichment (R)” read 0.36.
For `ACAUACUGACCAGACGUCAGUCUGUGAUGUUUCCGCUGCAAGAAUUCAAGCAUGCUGUUAGGAAUGUAAUUUCAAUGGGAAGUAAACCACUAUUAGGUUUUUUUUCUUUU`, “RBNS enrichment (R)” read 14.5.
`AGCAGCUUAAACAGCACUUUUAAUUAACUCCUAAACAUUACAUGGUGGGACUGUGGAGACUCCGUUAAGACAGGAGCUUGUCAGAGGUGGACAACACGAAGAUUUCCUUU`: “RBNS enrichment (R)” 0.635.
For `GUCUGGACUUAGCUUCAAACUCUAUGGAUUCGGCCUUGGUAGGGAAUUGUACCACCACUUGGUUUGGACUACAAAUUAAACAUUGGCCCUCGCGGAGCUUGAGUUCUUCA`, “RBNS enrichment (R)” read 0.477.
`UUUUCUUCUUUAAAAUUGGGGACCUAUAACAUCAUCGCUGUUGCGGAAUCCACUUAGGCAUGUGUCCCCUGAUGGAUGAAUACAUGGGAAUGGUGGAUACUGUCUUCUGA`: “RBNS enrichment (R)” 0.499.
`GUGUGAUCCUCCUUGAGCAUUGAGGAGGCACAUGGAGAACUAAAUCUUUUGUAGUAGCUGAGAUCUGCAAUAUAUAACGGGACAGUCAAAGGGCAAUGUUUUUCUGUAAC` — result for “RBNS enrichment (R)”: 0.685.
For `AUGACCCUUCCUUUUUACCUCAUUUAUUUGGUACUUUCCCCACACAGUCCUUUAUCCACCUGGAUUUUUAGGGAAAAAAAUGAAAAAGAAUAAGUCACAUUGGUUCCAUG`, “RBNS enrichment (R)” read 0.289.
For `GUUUCUACUGUGUGUAAAUGGGAGUCGCUCUCAUUAGUCCCAUUGCACUGACAUCCAGCACCUGGACAUCUCCCCUGGUGUCAGCCCACUGGCUCCGGGUCUACAUGGUG`, “RBNS enrichment (R)” read 0.457.
`ACAAACACAUUGGCCUCAAGGCUCCUUAGAAUCCCAGUUCCAGCUUCCUAAAAUAGACAGUGGGUAUCGGGCAGCAGUCACUGGGGCUCAAGGGCAGUGAGCAAGAGAAA` — result for “RBNS enrichment (R)”: 0.734.
`CCACACUGGACUAGUCUAUGCCUCAUGUGUCCAGCUUCCAUGUUGGACUUCGACCAGCAUCUGAAGGGAACCAGGUUGUGUGUGCUUGCAGUUUGCUCCCUGUUGACAUA` — result for “RBNS enrichment (R)”: 1.1.

Set 3
Target: Max-binding protein MNT, bHLH-zipper, MAX partner unstated (MNT, Homo sapiens, UniProt Q99583, residues 220-300)
Technique: protein-binding microarray
Molecule type: double-stranded DNA, one strand shown
Matrix: in vitro
Concentration: not given
Setting: k-mer, scored over probes, only values ≥0.25
Direction: higher = stronger binding
Construct (chain): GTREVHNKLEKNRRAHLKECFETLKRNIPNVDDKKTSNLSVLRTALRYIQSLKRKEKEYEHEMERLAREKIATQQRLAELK
`CACGTGGA` has an E-score of 0.495.
The E-score of `AGACCATG` is reported as 0.31.
With `ATGCCTCG` the E-score was 0.262.
The E-score of `CATGCCGA` is reported as 0.363.
With `ATCGTGGG` the E-score was 0.276.
For `ACCTCGTG`, the E-score was 0.465.
`GAGCACAC` gave an E-score of 0.33.
`CCACCCTC` has an E-score of 0.274.
With `CATGCACA` the E-score was 0.403.
With `GATCACGC` the E-score was 0.335.
`CCCCACGA` has an E-score of 0.305.
With `CATGTACA` the E-score was 0.289.
For `AACGAGGA`, the E-score was 0.259.
The E-score of `GCACATGC` is reported as 0.47.
`GGGCACGA` has an E-score of 0.261.
With `AGCATGGA` the E-score was 0.375.
`CACGCCCC` has an E-score of 0.319.
`ACATGCCT` has an E-score of 0.341.
With `CGTGGTGC` the E-score was 0.405.
`ATCTCATG` gave an E-score of 0.297.
`TCGTGGAA` has an E-score of 0.296.
`GCGTGAAC` gave an E-score of 0.308.
`CATGCTCA` has an E-score of 0.392.
`CCTCGCAC` has an E-score of 0.262.
`ACCACATG` gave an E-score of 0.475.

Set 4
Target: Sal-like protein 4, full length isoform B (SALL4, Homo sapiens, UniProt Q9UJQ4-2, residues 1-616)
Technique: universal PBM
Molecule type: double-stranded DNA, one strand shown
Matrix: in vitro
Concentration: not given
Setting: 8-mer, flanks averaged, mean of replicates
Direction: higher = stronger binding
Residues (chain): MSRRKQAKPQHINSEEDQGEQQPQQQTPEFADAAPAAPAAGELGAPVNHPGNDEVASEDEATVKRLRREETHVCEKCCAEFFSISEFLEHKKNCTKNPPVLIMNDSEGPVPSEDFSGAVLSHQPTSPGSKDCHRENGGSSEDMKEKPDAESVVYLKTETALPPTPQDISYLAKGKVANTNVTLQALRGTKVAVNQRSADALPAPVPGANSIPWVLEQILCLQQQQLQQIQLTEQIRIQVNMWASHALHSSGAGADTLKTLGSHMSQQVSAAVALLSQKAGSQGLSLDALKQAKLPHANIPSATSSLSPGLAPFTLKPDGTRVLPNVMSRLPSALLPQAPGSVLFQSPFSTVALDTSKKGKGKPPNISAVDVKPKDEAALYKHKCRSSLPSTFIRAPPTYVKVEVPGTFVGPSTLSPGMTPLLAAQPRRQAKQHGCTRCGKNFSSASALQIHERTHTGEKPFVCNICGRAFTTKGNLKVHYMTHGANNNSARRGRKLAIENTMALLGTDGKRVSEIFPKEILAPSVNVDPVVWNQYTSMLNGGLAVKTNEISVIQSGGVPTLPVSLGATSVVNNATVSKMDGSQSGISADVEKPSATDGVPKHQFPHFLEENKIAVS
`ATAGAGTA` has an E-score of 0.23.
For `CCTCACCA`, the E-score was -0.17.
For `GAATTACC`, the E-score was 0.113.
`GCCGAGCA` has an E-score of -0.336.
For `GAGATCCC`, the E-score was 0.0226.
The E-score of `ATTTCTCC` is reported as 0.135.
`AAAACTAT` has an E-score of 0.245.
The E-score of `CCTATGCA` is reported as 0.175.
With `CCATGTCG` the E-score was -0.212.
For `ATAGGAAT`, the E-score was 0.234.
For `GTGCGTAA`, the E-score was -0.0759.
`AACAGTAG` has an E-score of 0.0318.
`AATAAACT` gave an E-score of 0.359.
For `GCCCTCGC`, the E-score was -0.307.
For `GCCGTAAA`, the E-score was -0.0845.
`TAACGGAA` has an E-score of -0.025.
`TGTGGGAA` has an E-score of 0.0164.
With `ATCACGCG` the E-score was 0.012.
For `GTCACGGA`, the E-score was -0.171.
With `CCGTATCA` the E-score was 0.0369.
`ACACGGTA` has an E-score of -0.0847.
`GGACTTCA` has an E-score of -0.118.

Set 5
Target: Prothrombin, mature alpha-thrombin (F2, Homo sapiens, UniProt P00734)
Technique: aptamer microarray, sandwich
Molecule type: DNA with 2'F-ANA
Matrix: in vitro
Concentration: 200 nM
Setting: whole 15-mer aptamer, many near background
Added: Cy3 exosite-II aptamer, 400 nM
Direction: higher = stronger binding
Sequence: GGTTGGTGTGGTTGG
`2'F-ANA at 3 8 13 15` — result for “mean fluorescence intensity”: 850 a.u.
`2'F-ANA at 3 4 6 8 9 10 11 12 13 14 15`: “mean fluorescence intensity” 134 a.u.
`2'F-ANA at 1 2 3 6 7 12 13 14 15` — result for “mean fluorescence intensity”: 78.4 a.u.
`2'F-ANA at 1 3 6 8 10 12 14 15`: “mean fluorescence intensity” 78.9 a.u.
Under “mean fluorescence intensity”, `2'F-ANA at 3 4 6 7 12 13 15` is recorded as 634 a.u.
Under “mean fluorescence intensity”, `2'F-ANA at 1 2 3 4 11` is recorded as 177 a.u.
For `2'F-ANA at 1 2 4 6 7 9 10 11 15`, “mean fluorescence intensity” read 50.4 a.u.
Under “mean fluorescence intensity”, `2'F-ANA at 2 3 5 6 8 9 10 11` is recorded as 53.3 a.u.
`2'F-ANA at 2 3 5 8 9 13 14`: “mean fluorescence intensity” 52.1 a.u.
`2'F-ANA at 1 3 7 8 9 10 12 13`: “mean fluorescence intensity” 128 a.u.
For `2'F-ANA at 2 4 6 9 10 11 13 14`, “mean fluorescence intensity” read 70 a.u.
Under “mean fluorescence intensity”, `2'F-ANA at 1 3 4 5 6 7 8` is recorded as 66.2 a.u.
`2'F-ANA at 2 4 5 7 10 12 13`: “mean fluorescence intensity” 47.3 a.u.
For `2'F-ANA at 2 3 4 7 8 13 15`, “mean fluorescence intensity” read 587 a.u.
`2'F-ANA at 6 7 9 14`: “mean fluorescence intensity” 158 a.u.
`2'F-ANA at 1 3 4 5 7` — result for “mean fluorescence intensity”: 61.6 a.u.

A few entries again (set 4):
`ACACGGTA` has an E-score of -0.0847.
`AAAACTAT` has an E-score of 0.245.
With `CCGTATCA` the E-score was 0.0369.
For `GCCGTAAA`, the E-score was -0.0845.
`AACAGTAG` has an E-score of 0.0318.
